Results from different studies.
Protocols differ between the studies behind these lines. Numbers after ± are the reported error.

SMILES	test	system	setting	scale	endpoint	result
N=C(N)NCCC[C@@H]1NC(=O)[C@H](CCCCNC(=O)CCOCCOCCOCCOCCNC(=O)CC[C@H](NC(=O)CCOCCOCCOCCOCCNC(=O)CC[C@H](NC(=O)CN2CCN(CC(=O)O)CCN(CC(=O)O)CCN(CC(=O)O)CC2)C(=O)NCCOCCOCCOCCOCCC(=O)N[C@@H](CCC(=O)NCCOCCOCCOCCOCCC(=O)NCCCC[C@@H]2NC(=O)[C@@H](Cc3ccccc3)NC(=O)[C@H](CC(=O)O)NC(=O)CNC(=O)[C@H](CCCNC(=N)N)NC2=O)C(=O)NCCOCCOCCOCCOCCC(=O)NCCCC[C@@H]2NC(=O)[C@@H](Cc3ccccc3)NC(=O)[C@H](CC(=O)O)NC(=O)CNC(=O)[C@H](CCCNC(=N)N)NC2=O)C(=O)NCCOCCOCCOCCOCCC(=O)NCCCC[C@@H]2NC(=O)[C@@H](Cc3ccccc3)NC(=O)[C@H](CC(=O)O)NC(=O)CNC(=O)[C@H](CCCNC(=N)N)NC2=O)NC(=O)[C@@H](Cc2ccccc2)NC(=O)[C@H](CC(=O)O)NC(=O)CNC1=O [indium-111 labelled]		female athymic nude mouse	intravenous, 3 µCi, 4 h, U-87 MG glioma xenograft	baseline: tumour over muscle	tumour to muscle ratio	12.6 ± 3.7
CC(C)C[C@H](NC(=O)[C@@H]1CCCN1C(=O)[C@H](CCCCN)NC(=O)[C@@H](N)CO)C(=O)N1CCC[C@H]1C(=O)N[C@@H](CCC(=O)O)C(=O)N[C@H](C(=O)N[C@H](C(=O)N[C@@H](CC(=O)O)C(=O)N[C@@H](CCC(=O)O)C(=O)N[C@@H](Cc1ccc(O)cc1)C(=O)N[C@@H](Cc1cn(CCOCCOCCOCCNC(=O)CCc2ccc(O)c(CN(CCN(CC(=O)O)Cc3cc(CCC(=O)NCCCC[C@H](NC(=O)N[C@@H](CCC(=O)O)C(=O)O)C(=O)O)ccc3O)CC(=O)O)c2)nn1)C(=O)O)[C@@H](C)O)C(C)C [gallium-68 labelled]		NMRI nu/nu mouse, LNCaP xenograft	135.34 nmol/kg, low molar activity	baseline: tumour over muscle	tumour to muscle ratio	23.9
C[C@@H]1NC(=O)[C@H](CCC(=O)O)NC(=O)CNC(=O)[C@H](CC(=O)O)NC(=O)CNC(=O)[C@H](CCCCNC(=O)CCCCCNC(=O)[C@H](CS)NC(=O)CCCCCNC(=O)CN2CCN(CC(=O)O)CCN(CC(=O)O)CCN(CC(=O)O)CC2)NC(=O)[C@@H](Cc2ccc(O)cc2)NC1=O [gallium-68 labelled]		mouse, subcutaneous A549	10 min		tumour to muscle ratio	2.82 ± 0.76
N=C(N)NCCC[C@@H]1NC(=O)[C@H](CCCCNC(=O)CNC(=O)CNC(=O)CNC(=O)CC[C@H](NC(=O)c2ccc(NN=Cc3ccccc3S(=O)(=O)O)nc2)C(=O)NCC(=O)NCC(=O)NCC(=O)NCCCC[C@@H]2NC(=O)[C@@H](Cc3ccccc3)NC(=O)[C@H](CC(=O)O)NC(=O)CNC(=O)[C@H](CCCNC(=N)N)NC2=O)NC(=O)[C@@H](Cc2ccccc2)NC(=O)[C@H](CC(=O)O)NC(=O)CNC1=O [technetium-99m labelled]		athymic nu/nu mouse, female, MDA-MB-435 xenograft	intravenous, 30 min	baseline: tumour over liver	tumour to tissue ratio	1.56 ± 0.37
N=C(N)NCCC[C@@H]1NC(=O)[C@H](CCCCNC(=O)CCOCCOCCOCCOCCNC(=O)CC[C@H](NC(=O)CCOCCOCCOCCOCCNC(=O)CN2CCN(CC(=O)O)CCN(CC(=O)O)CCN(CC(=O)O)CC2)C(=O)NCCOCCOCCOCCOCCC(=O)NCCCC[C@@H]2NC(=O)[C@@H](Cc3ccccc3)NC(=O)[C@H](CC(=O)O)NC(=O)CNC(=O)[C@H](CCCNC(=N)N)NC2=O)NC(=O)[C@@H](Cc2ccccc2)NC(=O)[C@H](CC(=O)O)NC(=O)CNC1=O [copper-64 labelled]	ex vivo biodistribution	female athymic nude mouse, U-87 MG xenograft	240 min post injection		tumour to kidney ratio	2.28 ± 0.31
CC(C)C[C@H](NC(=O)C[C@H](O)[C@H](CC(C)C)NC(=O)[C@H](Cc1c[nH]cn1)NC(=O)CNC(=O)[C@@H](NC(=O)[C@H](C)NC(=O)[C@H](Cc1c[nH]c2ccccc12)NC(=O)[C@H](CCC(N)=O)NC(=O)[C@@H](Cc1ccccc1)NC(=O)c1ccc(NC(=O)CNC(=O)CCC(C(=O)O)N2CCN(CC(=O)O)CCN(CC(=O)O)CC2)cc1)C(C)C)C(N)=O (some centres unmarked) [fluorine-18 labelled]	PET imaging	mouse, PC-3 xenograft	intravenous, 2 h, blocking, together with: AMBA 10 mg/kg		tumour uptake	0.93 ± 0.14 %ID/g
N=C(N)NCCC[C@@H]1NC(=O)[C@H](CC(=O)O)NC(=O)[C@@H](Cc2ccccc2)NC(=O)[C@H](CCCCNC(=O)CCOCCOCCOCCOCCNC(=O)CC[C@H](NC(=O)CCOCCOCCOCCOCCNC(=O)CC[C@H](NC(=O)CN2CCN(CC(=O)O)CCN(CC(=O)O)CCN(CC(=O)O)CC2)C(=O)NCCOCCOCCOCCOCCC(=O)N[C@@H](CCC(=O)NCCOCCOCCOCCOCCC(=O)NCCCC[C@@H]2NC(=O)CNC(=O)[C@H](CCCNC(=N)N)NC(=O)[C@H](CC(=O)O)NC(=O)[C@@H](Cc3ccccc3)NC2=O)C(=O)NCCOCCOCCOCCOCCC(=O)NCCCC[C@@H]2NC(=O)CNC(=O)[C@H](CCCNC(=N)N)NC(=O)[C@H](CC(=O)O)NC(=O)[C@@H](Cc3ccccc3)NC2=O)C(=O)NCCOCCOCCOCCOCCC(=O)NCCCC[C@@H]2NC(=O)CNC(=O)[C@H](CCCNC(=N)N)NC(=O)[C@H](CC(=O)O)NC(=O)[C@@H](Cc3ccccc3)NC2=O)NC(=O)CNC1=O [indium-111 labelled]		female athymic nude mouse, U-87 MG tumour	intravenous, 3 µCi, 1 h, U-87 MG glioma xenograft		tumour uptake	0.8 %ID/g
N=C(N)NCCC[C@@H]1NC(=O)[C@H](CCCCNC(=O)CCOCCOCCOCCOCCOCCOCCOCCOCCOCCOCCOCCOCCNC(=O)CCSC2CC(=O)N(CCC(=O)NCCCC[C@H](NC(=O)CCC(C(=O)O)N3CCN(C(CCC(=O)N[C@@H](CCCCNC(=O)CCN4C(=O)CC(SCCC(=O)NCCOCCOCCOCCOCCOCCOCCOCCOCCOCCOCCOCCOCCC(=O)NCCCC[C@@H]5NC(=O)[C@@H](Cc6ccc(O)cc6)NC(=O)[C@H](CC(=O)O)NC(=O)CNC(=O)[C@H](CCCNC(=N)N)NC5=O)C4=O)C(=O)N(CCCNC(=O)CN4CCN(CC(=O)O)CCN(CC(=O)O)CCN(CC(=O)O)CC4)CCCNC(=O)CN4CCN(CC(=O)O)CCN(CC(=O)O)CCN(CC(=O)O)CC4)C(=O)O)CCN(C(CCC(=O)N[C@@H](CCCCNC(=O)CCN4C(=O)CC(SCCC(=O)NCCOCCOCCOCCOCCOCCOCCOCCOCCOCCOCCOCCOCCC(=O)NCCCC[C@@H]5NC(=O)[C@@H](Cc6ccc(O)cc6)NC(=O)[C@H](CC(=O)O)NC(=O)CNC(=O)[C@H](CCCNC(=N)N)NC5=O)C4=O)C(=O)N(CCCNC(=O)CN4CCN(CC(=O)O)CCN(CC(=O)O)CCN(CC(=O)O)CC4)CCCNC(=O)CN4CCN(CC(=O)O)CCN(CC(=O)O)CCN(CC(=O)O)CC4)C(=O)O)CC3)C(=O)N(CCCNC(=O)CN3CCN(CC(=O)O)CCN(CC(=O)O)CCN(CC(=O)O)CC3)CCCNC(=O)CN3CCN(CC(=O)O)CCN(CC(=O)O)CCN(CC(=O)O)CC3)C2=O)NC(=O)[C@@H](Cc2ccc(O)cc2)NC(=O)[C@H](CC(=O)O)NC(=O)CNC1=O (some centres unmarked) [gallium-68 labelled]	PET	SCID mouse, U-87 MG xenograft, tumour	intravenous, 6.0 mg, 1 h		tumour uptake	0.88 %ID/g
N=C(N)NCCC[C@@H]1NC(=O)[C@H](CCCCNC(=O)CNC(=O)CNC(=O)CNC(=O)c2ccc(NN=Cc3ccccc3S(=O)(=O)O)nc2)NC(=O)[C@@H](Cc2ccccc2)NC(=O)[C@H](CC(=O)O)NC(=O)CNC1=O [technetium-99m labelled]		athymic nu/nu mouse, female, U-87 MG glioma xenograft	intravenous, 120 min	baseline: tumour over liver	tumour to tissue ratio	1.4 ± 0.16
N=C(N)NCCC[C@@H]1NC(=O)[C@H](CCCCNC(=O)c2ccc(CNC34CNCCNCC(NCc5ccc(C(=O)NCCCC[C@@H]6NC(=O)[C@@H](Cc7ccc(O)cc7)NC(=O)[C@H](CC(=O)O)NC(=O)CNC(=O)[C@H](CCCNC(=N)N)NC6=O)cc5)(CNCCNC3)CNCCNC4)cc2)NC(=O)[C@@H](Cc2ccc(O)cc2)NC(=O)[C@H](CC(=O)O)NC(=O)CNC1=O [copper-64 labelled]	microPET	female athymic nude mouse, U-87 MG xenograft, U-87 MG tumour	intravenous, 1 h		tumour uptake	6.16 ± 0.88 %ID/g
N=C(N)NCCC[C@@H]1NC(=O)[C@H](CCCCNC(=O)CC[C@H](NC(=O)CCOCCOCCOCCOCCNC(=O)CC[C@H](NC(=O)CN2CCN(CC(=O)O)CCN(CC(=O)O)CCN(CC(=O)O)CC2)C(=O)NCCOCCOCCOCCOCCC(=O)N[C@@H](CCC(=O)NCCCC[C@@H]2NC(=O)[C@@H](Cc3ccccc3)NC(=O)[C@H](CC(=O)O)NC(=O)CNC(=O)[C@H](CCCNC(=N)N)NC2=O)C(=O)NCCCC[C@@H]2NC(=O)[C@@H](Cc3ccccc3)NC(=O)[C@H](CC(=O)O)NC(=O)CNC(=O)[C@H](CCCNC(=N)N)NC2=O)C(=O)NCCCC[C@@H]2NC(=O)[C@@H](Cc3ccccc3)NC(=O)[C@H](CC(=O)O)NC(=O)CNC(=O)[C@H](CCCNC(=N)N)NC2=O)NC(=O)[C@@H](Cc2ccccc2)NC(=O)[C@H](CC(=O)O)NC(=O)CNC1=O [indium-111 labelled]		female athymic nude mouse	intravenous, 3 µCi, 24 h, U-87 MG glioma xenograft	baseline: tumour over muscle	tumour to muscle ratio	16.8 ± 9.92
